# Published values collected from several papers.
# Parts stem from different laboratories: compare values within a part only.

# Series 1
# Target: Histone acetyltransferase KAT6A, both winged helices, GST fusion (KAT6A, Homo sapiens, UniProt Q92794, residues 1-181)
# Technique: protein binding microarray
# Molecule type: double-stranded DNA, one strand shown
# Matrix: in vitro
# Concentration: not given
# Notes: 8-mer, flanks averaged, mean of 2 arrays, mostly near background
# Baseline: not given
# Reading: higher = stronger binding
# Target sequence (chain): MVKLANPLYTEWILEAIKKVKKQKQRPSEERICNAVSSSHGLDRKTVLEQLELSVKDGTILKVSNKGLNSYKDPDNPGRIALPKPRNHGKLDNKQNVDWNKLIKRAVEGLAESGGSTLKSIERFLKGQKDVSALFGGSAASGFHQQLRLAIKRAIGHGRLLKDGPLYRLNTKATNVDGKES
Sequence,E-score
AGTATCGG,0.109
GGACTTTA,-0.0288
GATTTGAA,-0.064
AACATGAA,-0.0174
CTGAGATA,-0.166
ATTGATAA,-0.218
CTCTAAAA,-0.0595
CTGCACGA,-0.145
CCGTAGAG,0.136
TAAAAGCA,-0.0671
CGCCCGTC,0.334
ATACCACC,-0.0174
AAGGCCAC,-0.11
CCATCGAG,-0.00137
CTTAGGCC,-0.126
ACCACGCG,0.269
ATGTGTTA,-0.119
GATAGGAC,-0.0798
GGACATCA,0.0264
CCTTACGC,0.165
ACGAAAGC,0.0786
GTAAAGTA,0.0069
AACCAATA,-0.0724
ATCTGATC,-0.126
CCAAATGG,-0.0872

# Series 2
# Target: RING finger protein unkempt homolog, zinc fingers 1-6, GST-SBP tag (UNK, Homo sapiens, UniProt Q9C0B0, residues 30-357)
# Technique: RNA Bind-n-Seq
# Molecule type: RNA
# Matrix: in vitro
# Concentration: not given
# Notes: RNA with constant flanks, human-mouse chimeric sites, ends assumed
# Baseline: input RNA pool
# Reading: higher = stronger binding
# All sequences stand within: GGGAGUUCUACAGUCCGACGAUC … CAACAGAGGAUUGAGCAUCA
# Residues (chain): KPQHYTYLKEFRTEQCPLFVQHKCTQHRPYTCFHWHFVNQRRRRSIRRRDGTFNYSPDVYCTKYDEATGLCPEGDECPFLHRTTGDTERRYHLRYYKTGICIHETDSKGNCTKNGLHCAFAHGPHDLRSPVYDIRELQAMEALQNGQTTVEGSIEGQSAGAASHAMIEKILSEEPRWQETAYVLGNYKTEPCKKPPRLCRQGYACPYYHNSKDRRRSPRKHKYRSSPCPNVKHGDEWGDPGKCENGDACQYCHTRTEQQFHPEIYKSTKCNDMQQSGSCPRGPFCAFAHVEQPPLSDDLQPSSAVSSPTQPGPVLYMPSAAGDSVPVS
Sequence,bound/input enrichment [ratio]
CCUGCUCAGAUCACCAUGAAAGUAAUCCAAGGCCUAUAUAGUGGGGUCACCACAGUGGAACUGGACACUUUGGCUGCUGAAACAGCUGCGACCUUGACCACGAAGCACCCUGACUAUGCC,0.0791
AGAAUCUUGGGACUGUUUUACUUAAUUGGUCAUUGGUAGCUUAACAAACAUGGAGAUAAGAUUAGAAGUUUUGACAUCAACAGGUAUUAAGCAGAAAAAACCAUGGCCACGUGUCUCCUG,0.23
GUAUACGGUUAUCGAGGAAAGGACUGUAGAGCGAAUGUAUACCUGCUUCCCACAGGGAAAAUAGUUUAUUUUAUCGCCUCAGUGGUAGUACUAUUUAAUUAUGAGGAGAGGACUCAGCGA,5.9
AAAGUGAUGACUAUGUUUGUCCAACGACAGGUAUUUUCGGAGAGCAAAGAUGAGAUUGCUUUAGUCCUCUAUGGCACAGAUGGCACUGAUAAUGCCCUUGCUGGCAAGGACCAGUAUCAG,0.19
GAGUCGAGCAAACUUGAAACAAUUCGUUAUCUUGCAGCCUCAGUGUUCACUUGCUUGGCGAUAGCAUUGGGGUUUUAUAUAGAUUCUGGAAGUAGUAGACGAUGAUGCUGCCGCUGCUGC,0.608
GAUGAUAAUCACACAAACAAGUCACUGUUAUGUGACCAGCCUUGGGAUUCUUCUCCUGAUUAAUAUUCUCCCUGGAACCACUGGUCAAGGGGAAUCAAGACGACAAGAACCCGGGGACUU,0.129
UCAAGGGGGCACUGCAGAGCCAUGCCUUUCCUUGACAUACAGAAAAAGCUGGGCAUCAGCCUGGACCGGCACUUUAUGUUCCUAAGCGCAGAACAGCCCUACAAGAUCGCCGCUCGGUGC,0.0994
GCAAAGGAUGAUGAGGCAGCUGCAGUUGCCCUUUCCUCUCUCGUUCAUGCUUUGGAUGAGUUAAACAUGGUCGCCAUCGUCCGAUAUGCUUAUGACAAAAGAGCUAAUCCUCAAGUUGGU,0.149
GCUCCUCCCCGCUCUGCAGCCUGGGGACACUGGGCUGGGACCAGAAUCCAGCUUUCUUUUAAUAGUGUCAGUGUAACUUCUUUUUCUGACAUUUCAUUUUUUUUAAAUAGUGUAUUUUUU,22.5
AUAGAUGAAAUUGAUGUAGAUCAGGAAGGAAUUGCUGAAAUGAUCCUGGAUGAAAAUGCUAUUGCUCAGGUCCCACGCCCUGGAACGUCUUUGAAGCUCCCUGGCACUAACCAAACAGGA,0.556
GUUCGACUCUGGGAUCAUGCCACAAUGACAGAAGUGAAAUCUCUAAAUUUUAAUAUGUCUGUUAGCAGCAUGGAGUAUAUUCCUGAAGGAGAGAUUUUGGUUAUUACUUAUGGACGAUCU,0.253

# Series 3
# Target: RNA binding protein fox-1 homolog 2, RRM domain, GST-SBP tag (RBFOX2, Homo sapiens, UniProt O43251-10, residues 100-194)
# Technique: RNA Bind-n-Seq
# Molecule type: RNA
# Matrix: in vitro
# Concentration: 365 nM
# Notes: natural RNA segment, single round, ends assumed
# Baseline: no-protein control
# Reading: higher = stronger binding
# All sequences stand within: GGGAGUUCUACAGUCCGACGAUC … UGGAAUUCUCGGGUGCCAA
# Target sequence (chain): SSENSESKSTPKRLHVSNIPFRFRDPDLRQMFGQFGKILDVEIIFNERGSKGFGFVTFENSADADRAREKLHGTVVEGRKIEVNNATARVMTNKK
Sequence,RBNS enrichment (R)
UCCAAGACACAGGGAAGGAAGGCAGAGGCUCCUCAGGGCCUUAUGGUAGGCCUAGCAGGUAGAGCUCAGGCCAGGGGUCUUUCCUCUGAGUCGGGAACAUGUCCAUUCUA,0.343
GGCAGUGAGAGGAUAGGCACAGUGGACCGGGCAGGUGUCCACCAGCAGCUCAGCCCCUGCAGUCAUCUCAGAGCCCCUUCCCGGGCCUCUCCCCCAAGGCUCCCUGCCCC,0.239
CUGAUGCUUUCUGCAUGUCAGCAGUCCAGGAGGAUGCUUUUUGUCUCUCUUUGCCUCCACUUUACAAAAGAUAAUAUGAUAGAGGCAACGUUUAUAACAGUCACAUUUAA,5.63
CGUGUCUGGCGUUGUGGGGAUGAACUUUUUGUUUUGUUUCUUCCUUUUUUAGUUCUUCAAAGAUAGGGAGGGAAGGGGGAACAUGAGCCUUUGUUGCUAUCAAUCCAAGA,0.377
CCGACUCGCAUCUGGUAUUGUAGACCUUUUACCUCUCAUCCGUUGUGCUUACUAACAAAAUGUGAAAAGCAAGACCCAGGUGUCUCAUGUGGUGGCAGCACAGUGGCAGG,0.563
CAAAGGGGAACCUUGCUUCUGUGGUAGUAGAGGAGCAUUGUGCCUGGAAUUUCAGGAACUAUUGGAGCACGGCACAAUUGAUGCACAGGUAUUUCCUCCUGGCCCUUUUG,0.576
UUUCUGUAUUGUCUAGGUUAAGCCCACUUUAGGAGAUCCUUUACUCAUUAACUUAACCAACAAUGUGUAUUGAGUCUCUGCUGUAUAUCUGUGAUGCUCUGUCCCAAGCC,0.318
UGUAGAUCAACUAGCCAACGCCCUCAUUGCUUCAUUGUGUCAAAAAACCGAGAGCUUCACUAAAUGGUAGAUUUUGCUGUCAGAGACCCUACAAUAAGAUUGUUUUAUCU,0.646
AUAUAACGAGGUAAUGCAUGUAAGCAUUUAGUACCAUGCCUGGCACAUAGUAAGCACUCAAUAAAUGGUAGUUACUUUUGUUGAGCUCAGCUGGUAGUUUGACCUCCGUU,2.72
CGAGGAUGUGUUGCCUGGGCACGGUGACUGCGGUUAUUCCUGGAGGUCGGCAGACAUGCCAACCUUGGGCUAUUUGAGCUGGAGAAGCUAUGUGAUGCUAGCCGGUGGCU,0.599
AUUUAUUAUUUAUGUACAAUUUGGUGUUUGUAUUAGCUCUACUACAGUAAAUGACUGUAAAAUUGUCGUGGCUUACAACAACGUAUCUUUUUCGCUUAUAAUACAUUUUG,0.629
GCAUAUACCUGAAGGUUAACACUCAGGAUACACAAACCUCUACAGACCUUAGAAUCCCAUCUCUAUUUUCCCAACUGACUGUGACAGGCAUGAGGCACUGUCACUUGCUU,0.649

# Series 4
# Target: Ras GTPase-activating protein-binding protein 1, full length (G3BP1, Homo sapiens, UniProt Q13283)
# Sequence of UniProt Q13283 (whole entry, looked up): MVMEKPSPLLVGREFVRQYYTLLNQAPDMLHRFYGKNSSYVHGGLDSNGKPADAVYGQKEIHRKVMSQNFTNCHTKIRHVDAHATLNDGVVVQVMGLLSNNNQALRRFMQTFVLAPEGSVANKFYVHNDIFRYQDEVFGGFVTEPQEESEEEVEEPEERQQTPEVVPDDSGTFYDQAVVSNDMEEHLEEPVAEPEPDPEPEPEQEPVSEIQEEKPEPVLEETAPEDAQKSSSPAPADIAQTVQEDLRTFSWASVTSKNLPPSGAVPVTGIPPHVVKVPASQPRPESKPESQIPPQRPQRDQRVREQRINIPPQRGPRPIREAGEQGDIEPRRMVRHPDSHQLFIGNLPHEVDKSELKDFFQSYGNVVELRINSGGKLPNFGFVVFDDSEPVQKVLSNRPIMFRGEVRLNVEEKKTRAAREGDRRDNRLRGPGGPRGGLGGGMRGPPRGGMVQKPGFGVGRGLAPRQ
# Technique: RNA Bind-n-Seq
# Molecule type: RNA
# Matrix: in vitro
# Concentration: 200 nM
# Notes: whole 134-nt RNA, ends assumed
# With: 150 mM LiCl
# Baseline: input library
# Reading: higher = stronger binding
# Library: 7-deaza-guanosine replaces G
# All sequences stand within: GGGAGUUCUACAGUCCGACGAUC … UGGAAUUCUCGGGUGUCAAGG
Sequence,log2 enrichment
AGUCCUGUGCUACACAUCGUAUGUACCGAAUCAAAUUUAAACCCAAAUUUUUUUAAAAAAGUAUUAUGUUACGCCGUUCGGAUCUGCACU,-1.29
UCAAGUCCUGUGCUACACAUCGUAUGUACCGAAUCGGGAAAGGGGAAAGGAAAGGAAAGUAUUAUGUUACGCCGUUCGGAUCUGCACUUC,-1.24
GCAGGAAGUAAAAACAAAUGGAAAUGCUUCGGAUAGUGGCAGGGGUGGGGGUUGCUACGGAAAGGGUGGGAUGGGAGUGGGUAAAGAGUU,0.03
UCCUCAAGUCCUGUGCUACACAUCGUAUGUACCGAAUCGGAGGAGGUUUGGAAAGUAUUAUGUUACGCCGUUCGGAUCUGCACUUCCAGC,-1.73
UGUGCUACACAUCGUAUGUACCGAAUCGGGGAAAAAGGGGUUUUUUUGGGGUUUUUUUGGGGAAAGUAUUAUGUUACGCCGUUCGGAUCU,-1.19
UCCUGUGCUACACAUCGUAUGUACCGAAUCGGGGUUUUUGGGGAAAAAAAGGGGAGGGGAAAGUAUUAUGUUACGCCGUUCGGAUCUGCA,0.196
UGGCCCUGGUGGCAUGCGGGGAGGAAGAGGUGGCCUCAUGGAUCGUGGUGGUCCCGGUAGAAUGUUCAGAGGUGGCCGUGGUGGAGACAG,0.286
GUCCUGUGCUACACAUCGUAUGUACCGAAUCGGGGCCCCGGGGCCCCGGGGCCCCGGGGAAAGUAUUAUGUUACGCCGUUCGGAUCUGCA,-1.89
CCUGUGCUACACAUCGUAUGUACCGAAUCGGGGAAAAAAGGGAAAAAAGGGAAAAAAGGGAAAGUAUUAUGUUACGCCGUUCGGAUCUGC,0.367
CCUGUGCUACACAUCGUAUGUACCGAAUCGGGUUUUUUGGGGUUUUUUGGGGUUUUUUGGGAAAGUAUUAUGUUACGCCGUUCGGAUCUG,0.856
CAAGUCCUGUGCUACACAUCGUAUGUACCGAAUCGGUUUGGUUUGGGGUUUGGGGAAAGUAUUAUGUUACGCCGUUCGGAUCUGCACUUC,-0.858

# Series 5
# Target: Sal-like protein 4, full length isoform A (SALL4, Homo sapiens, UniProt Q9UJQ4, residues 1-1053)
# Sequence of UniProt Q9UJQ4 (whole entry, looked up): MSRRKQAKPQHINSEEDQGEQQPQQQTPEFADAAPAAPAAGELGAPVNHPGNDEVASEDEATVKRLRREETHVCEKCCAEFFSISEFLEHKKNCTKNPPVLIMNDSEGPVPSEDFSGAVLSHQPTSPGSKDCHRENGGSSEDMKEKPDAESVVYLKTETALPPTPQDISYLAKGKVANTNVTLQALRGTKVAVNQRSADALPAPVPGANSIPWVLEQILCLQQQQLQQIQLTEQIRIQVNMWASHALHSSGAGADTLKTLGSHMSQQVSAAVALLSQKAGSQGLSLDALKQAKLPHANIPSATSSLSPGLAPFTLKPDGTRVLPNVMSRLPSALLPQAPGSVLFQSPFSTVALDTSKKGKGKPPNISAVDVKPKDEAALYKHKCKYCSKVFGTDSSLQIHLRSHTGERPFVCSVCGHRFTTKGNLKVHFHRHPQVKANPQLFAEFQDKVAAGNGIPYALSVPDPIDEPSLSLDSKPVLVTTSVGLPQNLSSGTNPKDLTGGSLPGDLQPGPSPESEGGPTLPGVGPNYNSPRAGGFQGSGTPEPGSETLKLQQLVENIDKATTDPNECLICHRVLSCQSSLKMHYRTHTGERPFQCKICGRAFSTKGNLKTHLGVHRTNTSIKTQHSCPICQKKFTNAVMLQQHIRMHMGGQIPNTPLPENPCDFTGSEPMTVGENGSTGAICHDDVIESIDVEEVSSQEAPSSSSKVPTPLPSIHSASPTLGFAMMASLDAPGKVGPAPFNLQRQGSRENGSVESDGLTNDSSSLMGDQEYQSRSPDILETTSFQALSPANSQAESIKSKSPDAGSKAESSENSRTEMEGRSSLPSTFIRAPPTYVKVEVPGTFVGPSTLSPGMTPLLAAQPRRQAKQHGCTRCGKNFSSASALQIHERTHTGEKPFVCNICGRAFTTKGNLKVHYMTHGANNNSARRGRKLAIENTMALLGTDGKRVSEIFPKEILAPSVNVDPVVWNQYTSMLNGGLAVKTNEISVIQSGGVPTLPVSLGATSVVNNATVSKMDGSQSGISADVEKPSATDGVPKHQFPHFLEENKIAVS
# Technique: universal PBM
# Molecule type: double-stranded DNA, one strand shown
# Matrix: in vitro
# Concentration: 600 nM
# Notes: 8-mer, flanks averaged, mean of replicates
# Reading: higher = stronger binding
Sequence,E-score
AAGCCAAA,-0.00156
AGGTCACC,-0.273
CCGAGGGC,-0.301
ACTACCCG,-0.289
AATCATTC,0.229
AAACTCGG,-0.0933
AGGGCGAA,-0.0804
CAGCTAAG,-0.192
TAAATCTA,0.206
CATAGCCA,-0.011
GAAATCAC,0.211
CACTGGAC,-0.119
GGCCACCA,-0.222
CGATCGTC,-0.157
ACACCATC,-0.026
CACTGGGG,-0.363
CCCAAGTA,-0.0428
AGCCGGGA,-0.236
ACGATACG,0.0646
TCCACGAA,0.135

# A few entries again (series 1):
Sequence,E-score
ACGAAAGC,0.0786
ATGTGTTA,-0.119
ATCTGATC,-0.126
CCATCGAG,-0.00137
